Published values gathered from unrelated publications.
Lines come from different studies, so protocols differ.
Target: Phosphatidylinositol 3-kinase C2 domain-containing subunit gamma (PIK3C2G, Homo sapiens, UniProt O75747)

| Structure (SMILES) | read-out | action | method | concentration | relative to | quantity | result |
| --- | --- | --- | --- | --- | --- | --- | --- |
| C=CC(=O)N1Cc2nc(-c3cc(-c4cc(Cl)cnc4Cl)c(F)cc3F)n(-c3ccncn3)c2C1 | cell-free assay |  |  | 1 µM |  | inhibition | 4.4% |
| Nc1ncc2c(n1)-c1c([nH]c3ccc(C4=CCOCC4)cc13)CCC2 | binding |  | competition with immobilised ligand | 1 µM |  | remaining binding | 51% |
| CNC(=O)C[C@H](Cc1ccc(C#N)cc1)NC(=O)c1cc(-c2ccc(CN[C@H](C)c3ccc(C)cc3)o2)ccc1Cl | enzyme activity | inhibitor |  | 1 µM |  | activity vs control | 95% |
| C[C@H]1CN(C(=O)c2cn(-c3ccnc(N)n3)c3cc(C#CC4(O)CCCCC4)ccc23)CCN1 | enzyme activity | inhibitor |  | 1 µM |  | inhibition | 6% |
| CNC1C[S+]2CC[S+]3CC[S+](C1)[Ru-4]321([N]=C=S)[n]2c3ccc(OC)cc3c3c4c(c5cc(F)c[n+]1c5c32)C(=O)NC4=O (centres unmarked) |  |  | KinomeScan | 0.1 µM | untreated | remaining binding | 79% |
| Cc1cnc2nc1Nc1cccc(c1)COC/C=C/COCc1cc(ccc1OCCN1CCOCC1)N2 | binding |  |  | 0.1 µM |  | remaining binding | 74% |
| O=C(Cc1ccc(OCc2ccccc2)cc1)NC1(C(=O)O)CCN(C(=O)c2ccc(-c3cccc(Cl)c3)cc2)CC1 | enzyme activity | inhibitor |  | 10 µM |  | activity vs control | 110% |
| Cc1nc2c(F)cc(-c3nc(Nc4ccc(CNC(=O)CCCCCCC(=O)NO)cc4)ncc3F)cc2n1C(C)C | enzyme activity | inhibitor |  | 1 µM |  | inhibition | 61% |
| CN1CCN(Cc2ccc(-c3ccc(CO[C@H]4CCC[C@@H]4NC(=O)c4cc(-c5cnn(C)c5)cnc4N)cc3)cc2)CC1 | enzyme activity | inhibitor |  | 0.1 µM |  | inhibition | 8% |
| CN1CC[C@@H](COc2cnc(C#N)cc2-c2ccn3nc(NC(=O)C4CC4)cc3c2)C1 | enzyme activity | inhibitor |  | 1 µM |  | inhibition | 3% |
| C=CC(=O)N1CCc2ccc(-n3c(=O)ccc4cnc5ccc(-c6cnn(C)c6)cc5c43)cc21 |  |  | KINOMEscan | 1 µM | DMSO control | remaining binding | 100% |
| COc1cc(Nc2nc(C)cc(-c3cnn4nc(OC)ccc34)n2)cc(C(F)(F)F)c1 |  | inhibitor |  | 1 µM | control | remaining activity | 89% |
| COc1c(Cl)cccc1Nc1c(-c2ccncc2C#C[C@@]2(C)CCCN2C(=O)/C=C/CN(C)C)[nH]c2c1C(=O)NCC2 | binding |  | competition with immobilised ligand | 3 µM |  | remaining binding | 72% |
| Cc1ccc(-c2c(/C=C(\C#N)C(=O)NC(C)C)n(CCCO)c3ncnc(N)c23)cc1 | cell-free assay |  | competition with immobilised ligand | 1 µM |  | remaining binding | 90% |
| CC(=O)c1cnc(N)nc1N1CC[C@H]1c1nn2ccc(Cl)c2c(=O)n1-c1ccccc1 |  |  | KINOMEscan competition binding | 10 µM |  | remaining binding | 5.9% |
| C=CC(=O)N1CCCC(n2c(=O)c3ncccc3n(Cc3ccc(Oc4ccccc4)cc3)c2=O)C1 (centres unmarked) | cell-free assay |  | competition with immobilised ligand | 1 µM |  | remaining binding | 92% |
| COc1cc(Nc2nccc(-c3cnn4nc(OC)ccc34)n2)cc(C(F)(F)F)c1 | binding |  | competition with immobilised ligand | 1 µM |  | remaining binding | 85% |
| CCN1CCN(Cc2ccc(C(=O)Nc3ccc(C)c(NCc4cnc5[nH]ccc5c4OC)c3)cc2C(F)(F)F)CC1 | binding |  | competition with immobilised ligand | 1 µM |  | remaining binding | 89% |
| CNC(=O)C1CCN(c2cc(C)c(F)cc2NC(=O)c2ccc(-c3cc(O)ccc3C)c(C)c2)CC1 | binding |  | competition with immobilised ligand | 1 µM |  | remaining binding | 100% |
| CC(C)=CC1OC(C)(C)C2C=C3C(=O)C(Cl)=CC(O)C3C3C(O)C4OC4C(=O)C132 (centres unmarked) | cell-free assay |  | competition with immobilised ligand | 10 µM |  | remaining binding | 75% |
